Published values of several laboratories.
Parts stem from different laboratories: compare values within a part only. Positions count from the first letter of the parent shown.

Series 1
Target: Interferon regulatory factor 5, full length, phosphomimetic (IRF5, Homo sapiens, UniProt Q13568-2, residues 1-514, S451D/S453D/S456D/S462D)
Technique: protein-binding microarray
Form: double-stranded DNA, one strand shown
Sample: in vitro
Concentration: 940 nM top
Setting: 60-bp whole probe
Added: salmon DNA 0.4 mg/ml
Baseline: random background probes
Reading: higher = stronger binding
Measurement: fitted relative affinity
Constant ends, left off below: GCCTAGCAC … GTCTTGATTCGCTTGACGCTGCTG
GACCGTATCCTTATCCTGACGTGCTAG: 0.346 z-score
GACGGTATCGGGACTGGGGACGTGCTA: 3.14 z-score
TCAGGTTTTCTAATGTTACTGTGCTAG: 0.618 z-score
GTTTTTTTTTAATTGAAATCGTGCTAG: -0.0696 z-score
ACTCTTCTTTTTTTTCTTTAGTGCTAG: 1.9 z-score
GACGATTTCAGTTCCGTGACGTGCTAG: 0.863 z-score
TTAGATTCCAGTTTCTATTAGTGCTAG: 2.99 z-score
TTAGATATCGGGTTTCGATCAGTGCTA: 5.16 z-score
TTACGTTTCCTTTCCCTTTAGTGCTAG: 2.64 z-score
TATCTTATCCTATCAGTTTAGTGCTAG: 0.195 z-score
TTAGATTTTAGTTCCGATTAGTGCTAG: 1.91 z-score
GATGGTATCCTACTGCTGACGTGCTAG: 0.0427 z-score
TTAGGACTGGGGACTGGGCTAGTGCTA: -0.286 z-score
TTAGGTATCCGTATCCTTTAGTGCTAG: 0.915 z-score
GACGGTATCGGTTTCGGGTCGTGCTAG: 11.9 z-score
CAGAATCCAGCTCAGGTTGTGTGCTAG: -1.01 z-score
CTAATATTCTGCTTTGCAATGTGCTAG: 0.152 z-score
TTATGGTGTGGAGAAGGCACGTGCTAG: -0.568 z-score
TACGGTCTCGGACTGGGGACGTGCTAG: 0.704 z-score

Series 2
Target: ABI1, truncated, D143A, DHFR fusion (Arabidopsis thaliana)
Technique: DHFR PCA, deep sequencing
Sample: yeast
Setting: methotrexate growth selection, single substitutions
Added: (+)-ABA 0.0091 µM
Baseline: wild-type fitted maximum
Reading: higher = stronger binding
Measurement: relative binding score
Parent: PYL1, truncated, DHFR fusion (Arabidopsis thaliana); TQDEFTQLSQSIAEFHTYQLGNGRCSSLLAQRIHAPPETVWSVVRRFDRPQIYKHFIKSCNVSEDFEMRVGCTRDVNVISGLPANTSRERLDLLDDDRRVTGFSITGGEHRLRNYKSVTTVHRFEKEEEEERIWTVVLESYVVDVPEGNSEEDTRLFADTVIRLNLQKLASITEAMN; partner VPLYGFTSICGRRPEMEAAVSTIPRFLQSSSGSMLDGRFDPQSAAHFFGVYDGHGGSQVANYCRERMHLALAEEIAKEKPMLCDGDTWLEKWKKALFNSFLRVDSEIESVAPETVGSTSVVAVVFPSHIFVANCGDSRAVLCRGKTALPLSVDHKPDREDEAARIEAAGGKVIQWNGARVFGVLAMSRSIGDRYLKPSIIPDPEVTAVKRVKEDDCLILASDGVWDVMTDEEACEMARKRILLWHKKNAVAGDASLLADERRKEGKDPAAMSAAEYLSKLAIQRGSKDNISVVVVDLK
V121S: 6.36%
L93H: 2.15%
V43K: -1.14%
S140T: 2.8%
E89C: 5.16%
I79W: 20.4%
N177C: 52.5%
T17V: -3.5%
V137Y: -9.44%
R32P: 0.468%
T119S: -4.39%
C25E: -0.453%
R99N: -1.35%
E38F: -2.54%
S140R: -0.0868%
D144F: -0.961%
G23L: 0.889%
P36E: 14.7%

Series 3
Target: RING finger protein unkempt homolog, zinc fingers 1-6, GST-SBP tag (UNK, Homo sapiens, UniProt Q9C0B0, residues 30-357)
Technique: RNA Bind-n-Seq
Form: RNA
Sample: in vitro
Concentration: not given
Setting: RNA with constant flanks, human and mouse sites, ends assumed
Baseline: input RNA pool
Reading: higher = stronger binding
Measurement: bound/input enrichment
Constant ends, left off below: GGGAGUUCUACAGUCCGACGAUC … CAACAGAGGAUUGAGCAUCA
Target sequence (chain): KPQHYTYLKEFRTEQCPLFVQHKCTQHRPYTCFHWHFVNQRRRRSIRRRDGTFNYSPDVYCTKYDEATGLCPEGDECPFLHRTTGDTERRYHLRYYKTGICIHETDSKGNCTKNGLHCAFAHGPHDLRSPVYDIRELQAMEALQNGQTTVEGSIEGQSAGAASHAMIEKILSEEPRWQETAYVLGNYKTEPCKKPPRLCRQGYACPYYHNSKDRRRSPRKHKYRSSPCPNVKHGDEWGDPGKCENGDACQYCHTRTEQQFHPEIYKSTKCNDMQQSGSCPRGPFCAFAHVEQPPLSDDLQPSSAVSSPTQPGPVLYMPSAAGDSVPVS
ACUGCGUUUCAAGCGGCGUCUGCUCUGGGGGCAGAGUUUGCGUCAGAGGCAUGCAGAGAGUUGGGUUUCUCCAGCAACUUGCUCUGCAGCUCUUGCGAUCUUCUUGGACAGUUUAAUCUG: 0.0994 ratio
UUCCCUGAAUUUCUGACAAUGAUGGCAAGAAAAAUGAAAGACACAGACAGUGAAGAAGAGAUUAGAGAAGCAUUCCGUGUGUUUGAUAAGGAUGGCAAUGGCUAUAUUAGUGCAGCAGAG: 0.815 ratio
AGUAGAAUUUUCCAGUGUUGUGCUUGGAAUGGUGGAGUGUUCUGGUUCAGUCUCCUCUUGUUUUAUCGAGUAUUUAUUCCUGUGCUUCAGUCGGUAACAGCCCGAAUUAUCGGUGACCCA: 0.417 ratio
CCAGGACACUGCCUUAUGUUUGAUCAUCGGCCAAGGUCCUGGCGAGAACUGCCUCUGCGGCUAGCUGAUUUUGGGGUACUUCAUAGGAACGAGCUGUCUGGAGCACUCACAGGACUCACC: 0.147 ratio
GCAGAUGCAGUGGGGGUAACAGUUGUUCUGAUUACUUGCACCUACCGAGGUCAAGAAUUUAUUAGAGUUGGCUACUAUGUAAAUAAUGAAUACACUGAAACAGAAUUAAGGGAAAACCCA: 0.309 ratio
UUAGAUUCUGGGAAAUUCCGAGCCUUAGGAUGCAUCUUGUCUGAGUUGAAACAGAAGGGUGAUAGAGUUGUAUUAUUCAGCCAGUUUACCAUGAUGCUGGAUAUACUAGAGGUUCUCUUA: 0.731 ratio
AAAAAGCAGCUAAGGUUUUUACAAAGGGGAAAUGAGAACAAAAUGCUAGCUACAUCUGUAUAGCUGAACUUUUAUAUGGUCCUCGCUGUCCUCUCUCUGCUCUGCUGUCCCCAGUGGUCA: 0.244 ratio
ACUGGAUUUUGUAGCUUUUAUUCUGGAAGUCAGUUUGUCCCAGCUGAUCAGAAUUUGCCUCAGAAGUUCCUAAGUGAUGCUGUUCAGGAUCUUUUUCCAGGACAAGCUAUAGAAAAAAAU: 0.605 ratio

Series 4
Target: Histone acetyltransferase KAT6A, both winged helices, GST fusion (KAT6A, Homo sapiens, UniProt Q92794, residues 1-181)
Technique: protein binding microarray
Form: double-stranded DNA, one strand shown
Sample: in vitro
Concentration: not given
Setting: 8-mer, flanks averaged, mean of 2 arrays, mostly near background
Baseline: not given
Reading: higher = stronger binding
Measurement: E-score
Construct (chain): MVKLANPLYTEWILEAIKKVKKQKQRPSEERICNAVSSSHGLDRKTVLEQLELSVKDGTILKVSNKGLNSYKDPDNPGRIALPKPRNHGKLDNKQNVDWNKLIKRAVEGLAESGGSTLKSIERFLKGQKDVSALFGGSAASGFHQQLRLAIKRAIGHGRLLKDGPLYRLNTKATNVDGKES
CATGTTAG: -0.136
CTGCCGGC: 0.295
ATATTCGC: 0.0282
AGAACCTG: -0.208
GATATCAA: -0.0272
AACAAAAG: 0.0934
CTTGTTAA: -0.0697
GATCCCTA: -0.124
ACAGAAAA: -0.00059
AGGGACAC: -0.115
ATTGTCTG: -0.046
AGTCATGC: 0.0565
CGGATCAG: 0.0427
ATACCAAA: -0.00242
ATAACCGC: 0.208
CTGATATC: 0.0826
CTCGTTGC: 0.01
CCCACGAA: -0.124
CAGGCGCC: 0.116
CATATCGC: 0.189
TCCATAGA: -0.0225
CATGATAG: -0.0698

Series 5
Target: CCNA2, cyclin fold, Cln2 fusion (human)
Technique: yeast growth competition, sequencing
Sample: yeast
Setting: weak parent motif
Baseline: not given
Reading: higher = stronger binding
Measurement: normalised enrichment score
Parent: MASTL docking peptide (human); PMIAKNLMCELDE
PMINKNLMCELDE [A4N]: 0.311
PSIAKNLMCELDE [M2S]: 0.394
PMIAKKLMCELDE [N6K]: 0.054
PMIAKPLMCELDE [N6P]: -0.477
PMIAKYLMCELDE [N6Y]: 0.0864
PMIALNLMCELDE [K5L]: -0.34
PMIAKNLMCPLDE [E10P]: 0.0126
PMIAKNLMCELRE [D12R]: 0.0883
PMIAKNLMCELVE [D12V]: 0.162
PNIAKNLMCELDE [M2N]: -0.11
PMIAKNLRCELDE [M8R]: 0.213
PMIAKNLMQELDE [C9Q]: 0.131
PMIAKNLMCEWDE [L11W]: 0.661
PMIAANLMCELDE [K5A]: -0.303
PMIQKNLMCELDE [A4Q]: -0.18
PMIAYNLMCELDE [K5Y]: -0.515
PMVAKNLMCELDE [I3V]: -0.131
PMIAKTLMCELDE [N6T]: 0.168
PMIAKMLMCELDE [N6M]: 0.0283
PMHAKNLMCELDE [I3H]: -0.027
